Measurements pooled from the literature.
Lines come from different studies, so protocols differ. ± marks the error that the study gave.

| SMILES | test | system | setting | AUC(0-inf) |
| --- | --- | --- | --- | --- |
| NC(=O)c1cnc2[nH]ccc2c1N[C@@H]1[C@@H]2CC3C[C@H]1C[C@@](O)(C3)C2 | – | healthy Caucasian men, plasma | oral, 60 mg, single dose fasted | 0.529 µg·h/mL |
| CCOc1ccc(Cc2cc([C@@H]3S[C@H](CO)[C@@H](O)[C@H](O)[C@H]3O)c(OC)cc2C)cc1 | – | Japanese type 2 diabetes patients, plasma | oral, 5 mg single dose, eGFR 45-59 mL/min/1.73 m^2 | 2.16 ± 0.878 µg·h/mL |
| O=C(NC[C@H](O)CO)c1ccncc1Nc1ccc(I)cc1F | – | patients, plasma | oral, 45 mg single dose, day 1, median, together with: FOLFIRI | 1.16 µg·h/mL |
| Cc1nc(-c2ccc(OCC(C)C)c(C#N)c2)sc1C(=O)O | – | healthy Chinese adult volunteers, plasma | oral, 20 mg single dose, fed | 2.98 ± 0.761 µg·h/mL |
| CC(C)(Sc1ccncc1-c1ccc(C#N)c2ccccc12)C(=O)O | – | male, plasma | oral, 15 mg, severe renal impairment, fasted | 0.372 µg·h/mL |
| O=C(C1CCCCC1)N1CC(=O)N2CCc3ccccc3[C@@H]2C1 | – | healthy men, plasma | oral, 40 mg/kg racemic praziquantel, geometric mean, without ritonavir | 1.01 µg·h/mL |
| COc1cccc(N2CCN(C3=Nc4c(F)cccc4[C@H](CC(=O)O)N3c3cc(C(F)(F)F)ccc3OC)CC2)c1 | UHPLC-MS/MS | healthy women, plasma | intravenous infusion, 120 mg single dose, 30 min infusion, HPβCD formulation | 13.6 ± 3.82 µg·h/mL |
| Cc1ccc([C@@H]2O[C@H](CO)[C@@H](O)[C@H](O)[C@H]2O)cc1Cc1ccc(-c2ccc(F)cc2)s1 | – | Japanese type 2 diabetes patients, plasma | oral, 200 mg single, normal or mild renal impairment | 14.8 µg·h/mL |
| CC(C)=CCC[C@](C)(O[C@@H]1O[C@H](CO)[C@@H](O)[C@H](O)[C@H]1O)[C@H]1CC[C@]2(C)[C@@H]1[C@H](O)C[C@@H]1[C@@]3(C)CC[C@H](O[C@@H]4O[C@H](CO)[C@@H](O)[C@H](O)[C@H]4O)C(C)(C)[C@@H]3CC[C@]12C | LC-MS/MS | healthy male volunteers, serum | oral, 3 g red ginseng | 0.00308 ± 0.00224 µg·h/mL |
| O=C(c1cccnc1-c1ccncc1)N1CCC(O)(Cc2ccccc2)CC1 | – | healthy subjects, plasma | oral, 300 mg twice daily, day 1 | 1.51 µg·h/mL |
| C[C@H]1Oc2cc(cnc2N)-c2c(nn(C)c2C#N)CN(C)C(=O)c2ccc(F)cc21 | – | healthy adults | oral tablet, 100 mg single dose, fasted, adjusted geometric mean | 8.47 µg·h/mL |
| CCc1cc2c(cc1N1CCC(N3CCOCC3)CC1)C(C)(C)c1[nH]c3cc(C#N)ccc3c1C2=O | – | healthy subjects, matched to severe impairment, plasma, total | oral, 300 mg single, fed | 1.99 µg·h/mL |
| Oc1ccc2c3c(cnc2c1)-c1ccc(C(F)(F)F)cc1O[C@@H]3c1ccc(OCCN2CC(CF)C2)cc1 | – | healthy fasted women, plasma | oral solution, 400 mg, [14C]-labelled compound | 3.31 µg·h/mL |
| CS(=O)(=O)n1cc2c(n1)CN([C@H]1CO[C@H](c3cc(F)ccc3F)[C@@H](N)C1)C2 | – | healthy Japanese men, plasma | oral, 10 mg single dose, fed, geometric mean | 10.1 µM·h |
| CCC[C@H](N[C@@H](C)C(=O)N1[C@H](C(=O)O)C[C@@H]2CCCC[C@@H]21)C(=O)O | – | healthy Chinese volunteers, plasma | oral, 4 mg perindopril tert-butylamine, fasting, together with: indapamide 1.25 mg | 0.125 ± 0.0348 µg·h/mL |
| CN1C(=O)[C@@H](NC(=O)c2nnc(Cc3ccccc3)[nH]2)COc2ccccc21 | – | healthy men, plasma | oral, 120 mg twice daily, day 1, geometric mean | 6.79 µg·h/mL |
| COc1cc(OC)c(/C=C/S(=O)(=O)Cc2ccc(OC)c(NCC(=O)O)c2)c(OC)c1 | – | cancer patients, phase I, plasma | oral, 280 mg twice daily, day 21 cycle 1 | 2.61 ± 1.23 µg·h/mL |
| CC(C)=CCC[C@](C)(O[C@@H]1O[C@H](CO)[C@@H](O)[C@H](O)[C@H]1O)[C@H]1CC[C@]2(C)[C@@H]1[C@H](O)C[C@@H]1[C@@]3(C)CC[C@H](O[C@@H]4O[C@H](CO)[C@@H](O)[C@H](O)[C@H]4O[C@@H]4O[C@H](CO)[C@@H](O)[C@H](O)[C@H]4O)C(C)(C)[C@@H]3CC[C@]12C | LC-MS/MS | healthy female volunteers, serum | oral, 3 g fermented red ginseng | 0.18 ± 0.0881 µg·h/mL |
| NC(=O)c1cnc2[nH]ccc2c1N[C@@H]1[C@@H]2CC3C[C@H]1C[C@@](O)(C3)C2 | – | Japanese, normal hepatic function, plasma | oral, 150 mg single dose, fasting, mean | 1.15 µg·h/mL |
| Nc1cccc2c1C(=O)N(C1CCC(=O)NC1=O)C2=O (stereo not shown) | – | healthy male nonsmokers, plasma | oral, 4 mg, geometric mean, ANOVA | 0.684 µg·h/mL |
| CCOc1cc([C@@H](CS(C)(=O)=O)N2C(=O)c3cccc(NC(C)=O)c3C2=O)ccc1O[C@@H]1O[C@H](C(=O)O)[C@@H](O)[C@H](O)[C@H]1O | – | mild renal impairment, plasma | oral, 30 mg apremilast single, geometric mean | 5.42 µg·h/mL |
| CNC(=O)c1ccc(-c2cnc3ncc(Cc4ccc5ncccc5c4)n3n2)cc1F | – | severe hepatic impairment | oral, 200 mg, geometric mean | 7.72 µg·h/mL |
| CC(C)(Sc1ccncc1-c1ccc(C#N)c2ccccc12)C(=O)O | – | healthy Japanese male subjects, plasma | oral, 10 mg single dose, day 6, fed, geometric mean | 0.215 µg·h/mL |
| CCC[C@H](N[C@@H](C)C(=O)N1[C@H](C(=O)O)C[C@@H]2CCCC[C@@H]21)C(=O)OCC | – | healthy Chinese volunteers, whole blood | oral, 4 mg, fasting, together with: indapamide 1.25 mg | 0.0345 ± 0.0086 µg·h/mL |
| COc1ccc2c3c1O[C@H]1C[C@@H](OC(=O)c4ccccc4)C=C[C@@]31CCN(C)C2 | – | healthy elderly men, plasma | intranasal, 22 mg, single dose | 0.0691 µg·h/mL |
